Experimental data from different studies.
Each line is one published result; not all experiments were run side by side. In brackets after ≈: the same amount, converted by molar mass.

`CC(C)Nc1nccnc1C(=O)O` has an IC50 of < 100 µM (Mycobacterium tuberculosis variant bovis BCG; microbial growth; ATCC35734 BCG; 5 days).
`CCCCCCCn1c2c([n+](CCCCC)c1C)C(=O)c1ccccc1C2=O` gave an MIC90 of ≤ 0.3 µM (Mycobacterium tuberculosis variant bovis BCG; microbial growth; BCG; 5 days).
`C1CNCCN1` has an IC50 of > 10 µM (influenza virus; viral replication; MDCK; 72 h).
With `Cc1cccc(-c2nccnc2C(=O)O)c1` the IC50 was 800 µM (Mycobacterium tuberculosis variant bovis BCG; microbial growth; ATCC35734 BCG; 5 days).
`COc1ccc(-c2cc(=O)c3c(O)cc(O)cc3o2)cc1O` has an IC50 of > 10 µM (influenza virus; viral replication; MDCK; 72 h).
`CCC(=O)Nc1cncc(C(=O)O)n1` has an IC50 of 200 µM (Mycobacterium tuberculosis variant bovis BCG; microbial growth; ATCC35734 BCG; 5 days).
The tracer uptake of `CN[C@@](C)(C[18F])C(=O)O` is reported as 1.8 %ID/g (DU-145 tumour model; host not given, bone; 2 h, tumour-bearing).
For `CCCOC(=O)C1=C(C)CS[C@@H]2[C@H](NC(=O)COc3ccccc3)C(=O)N12`, the MIC90 was > 100 µg/mL (Mycobacterium tuberculosis variant bovis BCG; microbial growth; BCG).
`O=C(O)c1nccnc1NC1CCC1` has an IC50 of 400 µM (Mycobacterium tuberculosis variant bovis BCG; microbial growth; ATCC35734 BCG; 5 days).
`CCCCCCCC[n+]1c2c(n(CC(C)C)c1C)C(=O)c1ccccc1C2=O` has an MIC90 of ≤ 0.3 µM (Mycobacterium tuberculosis variant bovis BCG; microbial growth; BCG; 5 days).
`Cc1ccc(S(=O)(=O)N2C(=O)CSC2c2ccc(Cl)cc2)cc1` (centres unmarked) gave an EC50 of > 100 µM (influenza B virus; viral cytopathicity, visual CPE scoring; MDCK, B/Ned/537/05).
`CCOC(=O)C1=C(O)C(=O)N(Cc2ccccc2)C1` gave an IC50 of > 10 µM (influenza virus; viral replication; MDCK; 72 h).
For `Nc1ncnc2c1ncn2C[C@H](O)CO`, the EC50 was > 250 µM (vesicular stomatitis virus; viral replication; HeLa).
For `O=C(O)c1cc(O)c2c(c1)[C@H]([C@H]1c3cc(C(=O)O)cc(O)c3C(=O)c3c(O[C@@H]4O[C@H](CO)[C@@H](O)[C@H](O)[C@H]4O)cccc31)c1cccc(O[C@@H]3O[C@H](CO)[C@@H](O)[C@H](O)[C@H]3O)c1C2=O`, the IC50 was > 10 µM (influenza virus; viral replication; MDCK; 72 h).
`CCCCCCCCn1cc(CN2CCC3(CC2)OCCO3)c2ccc(OC)cc21` has an MIC50 of 1.5 µM (≈ 0.622 µg/mL) (Mycobacterium tuberculosis variant bovis BCG; microbial growth; BCG).
`COC(=O)C(N)CS` (centres unmarked) has an IC50 of > 10 µM (influenza virus; viral replication; MDCK; 72 h).
`O=C(O)c1nccnc1Nc1ccccc1` has an IC50 of 400 µM (Mycobacterium tuberculosis variant bovis BCG; microbial growth; ATCC35734 BCG; 5 days).

A few entries again:
`CCCCCCCCn1cc(CN2CCC3(CC2)OCCO3)c2ccc(OC)cc21` has an MIC50 of 1.5 µM (≈ 0.622 µg/mL) (Mycobacterium tuberculosis variant bovis BCG; microbial growth; BCG).
